Results of several laboratories.
Numbers after ± are the reported error.

SMILES	technique	matrix	tested at	pH	temperature	half-life
N=C(N)NCCC[C@@H]1NC(=O)[C@H](Cc2ccc(O)cc2)NC(=O)[C@H](CO)N2CC[C@@H](C2=O)N2CC[C@H](NC(=O)[C@@H]3CCCN3C(=O)[C@H](Cc3ccc(O)cc3)NC1=O)C2=O	HPLC	human serum	–	–	–	> 72 h
Cc1ccc2nc(C)c(C(=O)NCc3ccc(C(F)(F)F)cc3)n2c1	–	mouse liver microsomes	2 µM	–	–	0.25 h
Cc1ccc(OCCN(C)C)cc1C(=O)N[C@H](C)c1cc(-c2cnn(C)c2)cc(-c2cnn(C)c2)c1	–	mouse liver microsomes	–	–	–	> 2.42 h
CC(COC(=O)c1ccccc1)OC(=O)C(N)C(C)C (mixture of isomers)	–	isotonic buffer	–	pH 7.4	37 °C	24.2 ± 2.76 h
CSCC[C@H](NC(=O)[C@H](Cc1ccccc1)NC(=O)CNC(=O)[C@@H](C)NC(=O)[C@@H](N)Cc1ccc(O)cc1)C(=O)N1CCC[C@H]1C(=O)N[C@@H](CC(C)C)C(=O)N[C@@H](Cc1c[nH]c2ccccc12)C(=O)NCc1cc(C(F)(F)F)cc(C(F)(F)F)c1	–	rat plasma	50 µg/mL	–	37 °C	4.8 h
CC[C@H](C)[C@@H]1NC(=O)[C@H](Cc2ccc(O)cc2)NC(=O)[C@@H](N)CSCSC[C@@H](C(=O)N2CCC[C@H]2C(=O)N[C@@H](CC(C)C)C(=O)NCC(N)=O)NC(=O)[C@H](CC(N)=O)NC(=O)[C@H](CCC(N)=O)NC1=O	–	phosphate buffer	0.1 mg/mL	pH 9.0	40 °C	206 h
CC(COC(=O)c1ccccc1)OC(=O)C(N)Cc1ccccc1 (mixture of isomers)	–	–	–	pH 7.4	–	~21 h
CC(C)(C)NC(=O)[C@@H]1C[C@@H]2CCCC[C@@H]2CN1C[C@@H](OC(=O)CCC(=O)OC[C@H](O)[C@H]1OC(=O)C(O)=C1O)[C@H](Cc1ccccc1)NC(=O)[C@H](CC(N)=O)NC(=O)c1ccc2ccccc2n1	–	–	–	pH 7.4	–	9.65 ± 0.3 h

A few entries again:
SMILES	technique	matrix	tested at	pH	temperature	half-life
CSCC[C@H](NC(=O)[C@H](Cc1ccccc1)NC(=O)CNC(=O)[C@@H](C)NC(=O)[C@@H](N)Cc1ccc(O)cc1)C(=O)N1CCC[C@H]1C(=O)N[C@@H](CC(C)C)C(=O)N[C@@H](Cc1c[nH]c2ccccc12)C(=O)NCc1cc(C(F)(F)F)cc(C(F)(F)F)c1	–	rat plasma	50 µg/mL	–	37 °C	4.8 h
